# Assay results of several laboratories.
# Numbered parts are unrelated; each lists some results of a single study. Changes are numbered by the printed parent chain.

# Series 1 — target: CCNA1, cyclin fold, Cln2 fusion (human); method: yeast growth competition, sequencing; medium: yeast; notes: weak parent motif; reference: not given; reading: higher = stronger binding
# Starting sequence: RBL1 docking peptide (human); GSAKRRLFGEDPP; partner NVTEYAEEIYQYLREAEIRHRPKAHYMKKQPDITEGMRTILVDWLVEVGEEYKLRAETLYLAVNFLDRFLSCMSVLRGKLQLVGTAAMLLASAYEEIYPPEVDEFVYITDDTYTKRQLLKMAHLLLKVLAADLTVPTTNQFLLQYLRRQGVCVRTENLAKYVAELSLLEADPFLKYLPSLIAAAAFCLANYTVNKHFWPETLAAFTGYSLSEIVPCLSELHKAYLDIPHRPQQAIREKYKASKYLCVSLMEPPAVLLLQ
Substitution,normalised enrichment score
G9H,0.457
R5H,0.162
L7G,0.226
F8L,0.356
G1C,0.295
P13S,0.393
G1P,0.435
A3V,0.603
L7W,0.457
R6M,0.453
P13F,0.272
G9K,0.358
D11T,0.632
P13A,0.598
A3R,0.38
K4Q,0.303
P13T,0.532
F8C,0.271
G1L,0.68
K4P,0.249
S2K,0.201
R5S,0.426
E10L,0.585
A3H,0.334
G9C,0.854

# Series 2 — method: DHFR PCA, deep sequencing; medium: yeast; together with: (+)-ABA 0.0091 µM; reference: wild-type fitted maximum; reading: higher = stronger binding
# Target: ABI1, truncated, D143A, DHFR fusion (Arabidopsis thaliana)
# Notes: methotrexate growth selection, single substitutions
# Starting sequence: PYL1, truncated, DHFR fusion (Arabidopsis thaliana); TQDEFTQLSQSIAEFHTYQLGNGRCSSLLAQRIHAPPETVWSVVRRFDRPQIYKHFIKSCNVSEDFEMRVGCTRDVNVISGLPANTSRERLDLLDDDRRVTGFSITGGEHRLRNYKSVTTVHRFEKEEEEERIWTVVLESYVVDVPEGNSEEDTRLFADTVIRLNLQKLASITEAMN
Substitution,relative binding score
S117R,-4.81%
V118S,8.11%
S171F,15.6%
M68W,4.31%
V145K,-3.64%
H16A,0.246%
R99P,-4.07%
H110V,14.9%
D75I,30.7%
P50D,11.2%
F5A,3.23%
V62T,-0.443%
H55T,9.81%
T101V,41.3%
R24E,4.08%
I12K,-7.45%
N22Q,46%
L93S,-8.15%
I172Q,-8.57%
Q167L,17.8%
M68K,0.0281%

# Series 3 — target: ATF5, bZIP domain (human); method: DHFR protein complementation; medium: yeast; reference: wild-type JUN-FOS pair; reading: higher = stronger binding
# Notes: single substitutions, most at no-binding floor
# Starting sequence: JUN, bZIP domain (human); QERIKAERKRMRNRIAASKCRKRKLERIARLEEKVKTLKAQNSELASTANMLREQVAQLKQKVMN; partner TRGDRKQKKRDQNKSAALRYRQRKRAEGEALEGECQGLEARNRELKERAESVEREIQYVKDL
Substitution,binding fitness
S47K,-1.57 natural log
Q55S,-1.46 natural log
V56H,-1.41 natural log
L45E,-1.57 natural log
T48W,-1.43 natural log
S47N,-1.31 natural log
S43E,-1.51 natural log
L52E,-1.49 natural log
K39P,-1.48 natural log
L45T,-1.57 natural log
S47C,-1.49 natural log
V56K,-1.49 natural log
A29T,-1.4 natural log
L52C,-1.51 natural log
S47I,-1.58 natural log
E44R,-1.35 natural log
S47W,-1.44 natural log
L45H,-1.46 natural log
L59P,-1.47 natural log
L45G,-1.47 natural log
L38H,-1.51 natural log
Q41F,-1.41 natural log

# Series 4 — method: RNA Bind-n-Seq; form: RNA; medium: in vitro; concentration: 365 nM; reference: no-protein control; reading: higher = stronger binding
# Target: RNA binding protein fox-1 homolog 2, RRM domain, GST-SBP tag (RBFOX2, Homo sapiens, UniProt O43251-10, residues 100-194)
# Notes: natural RNA segment, single round, ends assumed
# Constant ends, left off below: GGGAGUUCUACAGUCCGACGAUC … UGGAAUUCUCGGGUGCCAA
# Residues (chain): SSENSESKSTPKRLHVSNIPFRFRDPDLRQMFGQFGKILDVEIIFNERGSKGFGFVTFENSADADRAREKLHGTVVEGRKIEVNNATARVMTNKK
Oligonucleotide,RBNS enrichment (R)
GCUCCCCAGACCCGCUCUGUUCCGUUGCUGUUAGAACAGUAGACUACUGACCGCUAUAGAGCAGAUACUCUGAGGGCCGACCCUCGCCUUUUCAUAGACAGACGAGGCAA,0.218
UUUUUAUAUUUUUAACUCUUUAUUCUUGGAUGUAUAAAGUGAACUUUUUGGCUUCUGUAAGUAUGCUCUAUGCACCUCUAAUGUUUUAUCAUGUAUUUAUAUGUUGUACA,0.82
UAUGAACUGUACUGGCUGUUGACCACCAGACACCUGACCGCAAAUAUCUUUUCUUGUAUUCCCAUAUUUCUAGACAAUGAUUUUUGUAAGACAAUAAAUUUAUUCAUUAU,0.228
CCAUCCCAACCCAGGGAGGCCUGUGUCACUCUGGCACAAGCUGCCACCACCAGCCACCCACACCCACCCCAGCACACCUCACACGGGACCACAGCCGCGCUGCCGAGGGC,1.36
AGACUUGUUAAAUGGCUUUGACCAAAAUGCUGAUAAUGAUUGGGACAUGAAAUCCAGGCUGAGUUGGUCUCAGAUAGCGAUGAGGAACUUGUUUGGUACUGGAGUAAAGG,0.732
GCUGUGACAAUGCACCAUAUUGAAGGGGUUAUCCUGUUAAUGCUCAUUUUUUCCUCUAAUUCAUAACUUACUGAAUUUUUAUGGAAAAUGUCAGCAUCUGUUCUAUCAGU,0.321
CUGCCCCACCAAAUGCUCAACCUUAGGUGGAAUCUCCCUGGAACACAUACCAGGUCAGGGAGGGCCGAUCCUUCCUCCACCUUUUUCCUGGCAUAUGUUUAAGGUAACAA,0.312
AGCGUCAGGAUGAGGAAAUGACAGGAGGAAGACGUGGGUUUGGGUUAGUGGCUGCUGGCGUUUUGGCCCUUGGUGUUUCUGGAGCCUCCAGGGAUCUAGGGGAGCCUGGG,0.745
UGCGGCAGUGUUCCUUGUGCCCGUGGGGCCGGGAGCGAGUAAAGUCUGGGCCAGGCUGUGUGUGUGUUCUUUGCUUUGAGGACUGGUGUUCUCUUUGGGGAUCCUGAUCC,0.721
GCCAUGGAGGGCUGAAGCCCAGGCUCUCCUUACUCUCUGGAGUGUGAAGGUAGGGGUGAGCUCGUCUCACCCCUUUAUUAAAUGCUCCUGGAACUUGGAAGAGCAGCAGA,0.319
GACUACCCGUGGGUAAGUCCUGCCAUUCAAGACUGGAGACACCUGGGAAAUAAAAAGAGCAGGGCACUGCUGGUGGGAAGAGGCAUUUUACCUUCCAGUGCAAAUCCUGC,0.22
CCAGCCACACCUGCUGCACGCCGCGUUAGUGUGCGGCUCCGGGCCUGAGCAUUCGCAAAGCUCGCUUCUCCAGGGAGCCUCCUCUUGGCUUUGGAAAAGAGCCCAGGGAC,0.39

# Series 5 — method: protein binding microarray; form: double-stranded DNA, one strand shown; medium: in vitro; concentration: not given; reference: not given; reading: higher = stronger binding
# Target: Histone acetyltransferase KAT6A, both winged helices, GST fusion (KAT6A, Homo sapiens, UniProt Q92794, residues 1-181)
# Notes: 8-mer, flanks averaged, mean of 2 arrays, mostly near background
# Residues (chain): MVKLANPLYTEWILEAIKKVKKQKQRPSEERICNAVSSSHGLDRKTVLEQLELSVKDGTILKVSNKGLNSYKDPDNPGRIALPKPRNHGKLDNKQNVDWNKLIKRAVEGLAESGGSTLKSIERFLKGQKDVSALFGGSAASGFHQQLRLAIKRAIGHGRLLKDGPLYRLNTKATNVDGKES
Oligonucleotide,E-score
CGGGCTGA,0.135
CGCTCCTA,0.0604
GGGACGAA,0.131
AAAACTGC,-0.0386
GGTTGTAC,0.0306
GCACGGAA,0.218
AGATTCTG,-0.231
ATCCGACC,0.0909
CTTTTATA,-0.018
ACGCCCCA,-0.0806
GCCCTGGA,-0.108
AGTCAGAT,-0.0964
CGGAAAAG,0.16
GCTCACCA,-0.106
CAAAATCG,-0.0644
GAGCCACC,-0.0708
ACTCATAG,-0.181
CGAATCCA,-0.054
CGCGAGTA,0.236
AGCGCGCG,0.401
CGGCATTA,0.328
GACTCCGC,0.19
TCCCAACA,-0.215
TCTCATAA,-0.219
GTTCTACA,-0.0624

# Repeated from above (series 4):
Oligonucleotide,RBNS enrichment (R)
GCUGUGACAAUGCACCAUAUUGAAGGGGUUAUCCUGUUAAUGCUCAUUUUUUCCUCUAAUUCAUAACUUACUGAAUUUUUAUGGAAAAUGUCAGCAUCUGUUCUAUCAGU,0.321
CUGCCCCACCAAAUGCUCAACCUUAGGUGGAAUCUCCCUGGAACACAUACCAGGUCAGGGAGGGCCGAUCCUUCCUCCACCUUUUUCCUGGCAUAUGUUUAAGGUAACAA,0.312
CCAGCCACACCUGCUGCACGCCGCGUUAGUGUGCGGCUCCGGGCCUGAGCAUUCGCAAAGCUCGCUUCUCCAGGGAGCCUCCUCUUGGCUUUGGAAAAGAGCCCAGGGAC,0.39
AGACUUGUUAAAUGGCUUUGACCAAAAUGCUGAUAAUGAUUGGGACAUGAAAUCCAGGCUGAGUUGGUCUCAGAUAGCGAUGAGGAACUUGUUUGGUACUGGAGUAAAGG,0.732
AGCGUCAGGAUGAGGAAAUGACAGGAGGAAGACGUGGGUUUGGGUUAGUGGCUGCUGGCGUUUUGGCCCUUGGUGUUUCUGGAGCCUCCAGGGAUCUAGGGGAGCCUGGG,0.745
GACUACCCGUGGGUAAGUCCUGCCAUUCAAGACUGGAGACACCUGGGAAAUAAAAAGAGCAGGGCACUGCUGGUGGGAAGAGGCAUUUUACCUUCCAGUGCAAAUCCUGC,0.22
CCAUCCCAACCCAGGGAGGCCUGUGUCACUCUGGCACAAGCUGCCACCACCAGCCACCCACACCCACCCCAGCACACCUCACACGGGACCACAGCCGCGCUGCCGAGGGC,1.36
GCCAUGGAGGGCUGAAGCCCAGGCUCUCCUUACUCUCUGGAGUGUGAAGGUAGGGGUGAGCUCGUCUCACCCCUUUAUUAAAUGCUCCUGGAACUUGGAAGAGCAGCAGA,0.319
GCUCCCCAGACCCGCUCUGUUCCGUUGCUGUUAGAACAGUAGACUACUGACCGCUAUAGAGCAGAUACUCUGAGGGCCGACCCUCGCCUUUUCAUAGACAGACGAGGCAA,0.218
UUUUUAUAUUUUUAACUCUUUAUUCUUGGAUGUAUAAAGUGAACUUUUUGGCUUCUGUAAGUAUGCUCUAUGCACCUCUAAUGUUUUAUCAUGUAUUUAUAUGUUGUACA,0.82
UAUGAACUGUACUGGCUGUUGACCACCAGACACCUGACCGCAAAUAUCUUUUCUUGUAUUCCCAUAUUUCUAGACAAUGAUUUUUGUAAGACAAUAAAUUUAUUCAUUAU,0.228
UGCGGCAGUGUUCCUUGUGCCCGUGGGGCCGGGAGCGAGUAAAGUCUGGGCCAGGCUGUGUGUGUGUUCUUUGCUUUGAGGACUGGUGUUCUCUUUGGGGAUCCUGAUCC,0.721
